Measured values gathered from unrelated publications.
Numbered parts are unrelated; each lists some results of a single study.

Study 1
Target: RING finger protein unkempt homolog, zinc fingers 1-6, GST-SBP tag (UNK, Homo sapiens, UniProt Q9C0B0, residues 30-357)
UniProt Q9C0B0, sequence (30-357, looked up): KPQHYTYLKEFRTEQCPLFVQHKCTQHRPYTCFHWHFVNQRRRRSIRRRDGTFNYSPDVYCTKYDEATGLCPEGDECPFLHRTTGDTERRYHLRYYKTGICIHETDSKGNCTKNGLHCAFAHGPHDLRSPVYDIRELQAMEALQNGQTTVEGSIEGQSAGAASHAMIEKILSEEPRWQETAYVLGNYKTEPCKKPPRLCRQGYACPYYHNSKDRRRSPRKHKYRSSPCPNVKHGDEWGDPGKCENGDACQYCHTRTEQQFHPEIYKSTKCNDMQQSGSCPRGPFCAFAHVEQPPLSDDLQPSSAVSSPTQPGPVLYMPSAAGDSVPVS
Technique: RNA Bind-n-Seq
Molecule type: RNA
Sample: in vitro
Concentration: not given
Notes: RNA with constant flanks, human and mouse sites, ends assumed
Baseline: input RNA pool
Direction: higher = stronger binding
Shared flanks, not repeated: GGGAGUUCUACAGUCCGACGAUC … CAACAGAGGAUUGAGCAUCA
| Strand | bound/input enrichment |
| --- | --- |
| UCUUGAGGAGAGUACAGAUGGGGAGGAAGGUUCCAGACUCUCCUCUCACUUUUUUUUUCCUCUCCUAUUCCAACACUUCCUGCUGGGAGAUCUCCACGCCUAUUUUCACCAUUCUCAGGC | 0.244 ratio |
| CAAGGUGGUUUCAGAGAAGUGCGGAAUGAGUAUGGCUCAAGAAUAGGAGGCAAUGAAGGGAUAGAUGUCCCAAUUCCAAGAUUUGCUGUUGGCAUUGUAAUAGGAAGAAAUGGAGAAAUG | 2.54 ratio |
| CACUCCUUCCCCAGGGUUUAAGAGAUUGGGGGCAGACAGGGACUUUCCUCUGCCGGCUGCGUGGAGAAGGAAGCGGCUAAAAGGUUUGGGCCGGGGAGUUCCCCAUUCGUUCUCCGGGGA | 0.155 ratio |
| AUGUGGUAUCGUUUACGGUUAUUAAAACCCCAGCCAAAUAUUAUUCCUACAGUAAAGAAAAUAGUUCUGCUUGCAGGAUGGGCAUUGUUCUUAUUCCUUGCAUAUAAAGUUUCCAAAACA | 0.327 ratio |
| UAUUGAAUUGCUGAGGAUUUUGGGAAAAGACAAAUCAAAGUUCCCAUUCCAUGGAUCCCUUAGGUGCACCUUCCCAGUUUGUGGAUGUGGAUACACUACCAAGCUGGGGUGACUCAUGCC | 0.238 ratio |
| UGUGCUUUUAUAUAACCAUUUUGUUAUUUGAAUCUUGAAAAACUAGUUUUCUUAUAUUCCUAUAGUCUUGGUUUUUUUAAAGGCCUUUGCAUACACCUUUAUGAUAGUUUAAGAUUGACU | 5.29 ratio |
| GCCAGCAAGCCUCAGAGUAUCCAAGAAUCAACUGGCAGUAUAAUUGAAGUUCUGAGUAAAAUAGAUUCAGAAGGAGGAGUUUCAGCAAAUCAUACUAGUCGUGCAACGUCUACAGCAACA | 0.5 ratio |
| GGAAAUGGAGAAUUUUGUCAGUGUUACAUGGGCUCACAGAAACAAUUUAAAAUUACUAAACUUUCACCAGCAAUGGGCUGUAAAUUCAGACUAUCGGCCAGAAAUGACUAUGGUACAAGU | 0.497 ratio |

Study 2
Target: Histone acetyltransferase KAT6A, winged helix 1, GST fusion (KAT6A, Homo sapiens, UniProt Q92794, residues 1-85)
Technique: protein binding microarray
Molecule type: double-stranded DNA, one strand shown
Sample: in vitro
Concentration: not given
Notes: 8-mer, flanks averaged, mean of 2 arrays, mostly near background
Baseline: not given
Direction: higher = stronger binding
Residues (chain): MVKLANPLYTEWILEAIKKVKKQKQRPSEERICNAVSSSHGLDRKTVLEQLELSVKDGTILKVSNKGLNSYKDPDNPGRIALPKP
| Strand | E-score |
| --- | --- |
| CGCTAGCC | 0.281 |
| CTGGAAGA | -0.105 |
| CCTGACCC | 0.0485 |
| AATACCGG | 0.13 |
| ATTGTTAG | -0.0342 |
| ATAACACG | 0.2 |
| ACATTGAG | 0.0253 |
| ATATTGTG | -0.0716 |

Study 3
Target: Sal-like protein 4, full length isoform A (SALL4, Homo sapiens, UniProt Q9UJQ4, residues 1-1053)
UniProt Q9UJQ4, sequence (whole entry, looked up): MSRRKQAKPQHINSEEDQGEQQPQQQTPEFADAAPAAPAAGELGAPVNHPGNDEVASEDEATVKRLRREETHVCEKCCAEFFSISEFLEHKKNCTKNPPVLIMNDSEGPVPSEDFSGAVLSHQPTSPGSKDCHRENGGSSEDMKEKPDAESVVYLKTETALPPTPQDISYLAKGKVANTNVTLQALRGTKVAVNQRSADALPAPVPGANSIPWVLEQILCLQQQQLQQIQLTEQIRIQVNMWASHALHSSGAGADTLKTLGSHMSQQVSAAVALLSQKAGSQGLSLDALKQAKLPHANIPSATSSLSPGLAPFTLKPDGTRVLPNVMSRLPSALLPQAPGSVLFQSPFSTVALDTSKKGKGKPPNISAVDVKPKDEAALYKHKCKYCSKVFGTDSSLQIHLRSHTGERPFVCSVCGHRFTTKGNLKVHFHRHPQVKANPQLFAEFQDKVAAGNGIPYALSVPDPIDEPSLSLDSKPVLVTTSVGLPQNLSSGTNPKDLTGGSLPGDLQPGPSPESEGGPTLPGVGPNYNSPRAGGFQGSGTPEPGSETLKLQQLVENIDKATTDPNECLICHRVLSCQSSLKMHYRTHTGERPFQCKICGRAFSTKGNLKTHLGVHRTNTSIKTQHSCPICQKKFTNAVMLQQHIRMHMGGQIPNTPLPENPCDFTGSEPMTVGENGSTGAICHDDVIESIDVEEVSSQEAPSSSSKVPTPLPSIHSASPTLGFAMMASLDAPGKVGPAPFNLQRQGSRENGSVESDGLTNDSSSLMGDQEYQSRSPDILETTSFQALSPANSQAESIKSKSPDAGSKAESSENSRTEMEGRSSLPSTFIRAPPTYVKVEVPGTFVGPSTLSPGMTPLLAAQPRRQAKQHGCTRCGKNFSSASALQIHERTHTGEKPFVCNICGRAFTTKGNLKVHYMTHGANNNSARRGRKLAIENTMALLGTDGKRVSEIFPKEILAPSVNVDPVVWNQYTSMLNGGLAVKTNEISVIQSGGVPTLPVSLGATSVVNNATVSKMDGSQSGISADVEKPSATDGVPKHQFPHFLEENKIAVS
Technique: universal PBM
Molecule type: double-stranded DNA, one strand shown
Sample: in vitro
Concentration: 600 nM
Notes: 8-mer, flanks averaged, mean of replicates
Direction: higher = stronger binding
| Strand | E-score |
| --- | --- |
| CGTGAGAC | -0.0946 |
| TGTCCACA | 0.151 |
| ATGCTAAA | 0.16 |
| AATACCGT | 0.0852 |
| AGATTTTG | 0.141 |

Single results of other studies
| Substance | target | assay | test system | setting | how to read | endpoint | value |
| --- | --- | --- | --- | --- | --- | --- | --- |
| PhoQ, residues 284 288 289 292 302 303 ALAMYF | PhoP, residues 12 14 15 18 19 TPWLV (Escherichia coli, UniProt P23836) | Sort-seq, refers to: YFP reporter | E. coli | PhoQ-PhoP variant library, added: 10 µM Mg2+ | baseline: high Mg2+ state, higher = stronger signaling | fold induction | 6.7 |
